{"data": "Values quoted from earlier work that unrelated publications cite", "note": "Lines come from different studies, so protocols differ. ± marks the error that the study gave.", "chain of UniProt P35462 (whole entry, looked up)": "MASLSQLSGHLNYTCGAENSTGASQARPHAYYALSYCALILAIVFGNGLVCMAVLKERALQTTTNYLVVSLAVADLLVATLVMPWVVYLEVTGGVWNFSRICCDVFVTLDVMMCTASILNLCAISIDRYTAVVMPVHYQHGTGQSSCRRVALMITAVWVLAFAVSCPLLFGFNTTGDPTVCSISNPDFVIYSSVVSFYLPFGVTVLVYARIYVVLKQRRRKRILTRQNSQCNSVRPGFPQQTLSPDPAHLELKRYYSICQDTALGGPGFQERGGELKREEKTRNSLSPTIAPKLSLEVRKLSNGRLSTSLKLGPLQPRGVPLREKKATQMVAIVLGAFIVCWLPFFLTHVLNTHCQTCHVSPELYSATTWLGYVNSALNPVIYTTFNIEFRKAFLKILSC", "chain of UniProt P14867 (whole entry, looked up)": "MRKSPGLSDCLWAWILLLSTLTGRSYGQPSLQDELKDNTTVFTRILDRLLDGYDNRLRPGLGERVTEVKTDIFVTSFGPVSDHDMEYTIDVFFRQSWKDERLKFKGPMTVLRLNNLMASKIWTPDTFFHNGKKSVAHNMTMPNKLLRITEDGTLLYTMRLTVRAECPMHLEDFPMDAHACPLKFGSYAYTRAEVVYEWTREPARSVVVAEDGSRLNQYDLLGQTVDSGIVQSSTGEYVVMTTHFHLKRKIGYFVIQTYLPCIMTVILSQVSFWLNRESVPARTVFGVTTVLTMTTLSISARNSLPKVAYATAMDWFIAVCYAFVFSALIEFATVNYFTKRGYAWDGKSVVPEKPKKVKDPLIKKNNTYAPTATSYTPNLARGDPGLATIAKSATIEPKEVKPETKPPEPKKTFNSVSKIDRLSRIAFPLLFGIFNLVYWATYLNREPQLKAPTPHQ", "chain of UniProt Q96LA8 (whole entry, looked up)": "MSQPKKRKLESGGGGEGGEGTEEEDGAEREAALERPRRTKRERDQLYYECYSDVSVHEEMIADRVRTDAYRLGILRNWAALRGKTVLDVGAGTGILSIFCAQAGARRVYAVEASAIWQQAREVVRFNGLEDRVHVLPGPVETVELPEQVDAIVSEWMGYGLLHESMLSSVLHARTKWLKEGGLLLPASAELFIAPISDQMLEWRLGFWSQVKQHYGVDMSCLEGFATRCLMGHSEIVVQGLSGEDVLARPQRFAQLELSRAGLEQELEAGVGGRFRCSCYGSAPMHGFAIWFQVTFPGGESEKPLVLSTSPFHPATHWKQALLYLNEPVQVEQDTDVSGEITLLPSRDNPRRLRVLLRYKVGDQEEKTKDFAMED", "chain of UniProt P28472 (whole entry, looked up)": "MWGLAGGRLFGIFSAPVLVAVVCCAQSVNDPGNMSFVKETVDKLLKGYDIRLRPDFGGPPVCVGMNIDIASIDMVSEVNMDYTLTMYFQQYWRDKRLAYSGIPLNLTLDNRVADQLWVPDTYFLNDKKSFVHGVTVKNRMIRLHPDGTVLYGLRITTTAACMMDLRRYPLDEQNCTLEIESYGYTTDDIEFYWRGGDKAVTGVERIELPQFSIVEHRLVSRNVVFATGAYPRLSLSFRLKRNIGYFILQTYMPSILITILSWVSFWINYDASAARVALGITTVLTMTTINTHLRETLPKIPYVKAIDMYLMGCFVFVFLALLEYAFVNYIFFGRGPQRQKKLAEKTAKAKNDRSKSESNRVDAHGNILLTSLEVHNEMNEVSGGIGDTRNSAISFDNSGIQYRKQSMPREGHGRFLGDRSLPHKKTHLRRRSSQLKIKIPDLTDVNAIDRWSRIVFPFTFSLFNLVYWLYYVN", "chain of UniProt Q92570 (whole entry, looked up)": "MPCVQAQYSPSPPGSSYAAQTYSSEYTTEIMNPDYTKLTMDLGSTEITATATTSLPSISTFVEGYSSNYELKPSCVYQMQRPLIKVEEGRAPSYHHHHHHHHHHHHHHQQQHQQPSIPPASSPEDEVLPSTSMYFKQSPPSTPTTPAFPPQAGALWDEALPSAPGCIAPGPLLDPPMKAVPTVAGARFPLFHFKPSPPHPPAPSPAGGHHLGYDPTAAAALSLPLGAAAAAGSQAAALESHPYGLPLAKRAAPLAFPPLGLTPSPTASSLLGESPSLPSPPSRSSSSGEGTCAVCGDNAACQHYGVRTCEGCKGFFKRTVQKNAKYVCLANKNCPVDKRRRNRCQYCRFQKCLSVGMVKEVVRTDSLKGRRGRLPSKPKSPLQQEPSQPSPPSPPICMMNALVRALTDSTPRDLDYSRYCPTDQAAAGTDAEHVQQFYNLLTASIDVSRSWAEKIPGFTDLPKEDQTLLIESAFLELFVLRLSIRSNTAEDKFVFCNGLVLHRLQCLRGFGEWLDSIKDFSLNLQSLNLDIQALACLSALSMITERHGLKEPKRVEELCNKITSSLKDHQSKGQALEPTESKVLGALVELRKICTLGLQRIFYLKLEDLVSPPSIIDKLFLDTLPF", "chain of UniProt P25021 (whole entry, looked up)": "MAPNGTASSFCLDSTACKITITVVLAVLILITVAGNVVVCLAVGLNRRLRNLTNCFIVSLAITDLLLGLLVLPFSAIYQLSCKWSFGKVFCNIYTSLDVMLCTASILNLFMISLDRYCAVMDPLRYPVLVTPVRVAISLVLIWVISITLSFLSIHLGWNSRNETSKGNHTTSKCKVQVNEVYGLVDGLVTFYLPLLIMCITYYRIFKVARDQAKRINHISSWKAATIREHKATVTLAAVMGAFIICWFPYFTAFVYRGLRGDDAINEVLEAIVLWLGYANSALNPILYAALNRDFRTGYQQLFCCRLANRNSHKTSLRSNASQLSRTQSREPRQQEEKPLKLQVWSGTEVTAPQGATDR", "chain of UniProt P42338 (whole entry, looked up)": "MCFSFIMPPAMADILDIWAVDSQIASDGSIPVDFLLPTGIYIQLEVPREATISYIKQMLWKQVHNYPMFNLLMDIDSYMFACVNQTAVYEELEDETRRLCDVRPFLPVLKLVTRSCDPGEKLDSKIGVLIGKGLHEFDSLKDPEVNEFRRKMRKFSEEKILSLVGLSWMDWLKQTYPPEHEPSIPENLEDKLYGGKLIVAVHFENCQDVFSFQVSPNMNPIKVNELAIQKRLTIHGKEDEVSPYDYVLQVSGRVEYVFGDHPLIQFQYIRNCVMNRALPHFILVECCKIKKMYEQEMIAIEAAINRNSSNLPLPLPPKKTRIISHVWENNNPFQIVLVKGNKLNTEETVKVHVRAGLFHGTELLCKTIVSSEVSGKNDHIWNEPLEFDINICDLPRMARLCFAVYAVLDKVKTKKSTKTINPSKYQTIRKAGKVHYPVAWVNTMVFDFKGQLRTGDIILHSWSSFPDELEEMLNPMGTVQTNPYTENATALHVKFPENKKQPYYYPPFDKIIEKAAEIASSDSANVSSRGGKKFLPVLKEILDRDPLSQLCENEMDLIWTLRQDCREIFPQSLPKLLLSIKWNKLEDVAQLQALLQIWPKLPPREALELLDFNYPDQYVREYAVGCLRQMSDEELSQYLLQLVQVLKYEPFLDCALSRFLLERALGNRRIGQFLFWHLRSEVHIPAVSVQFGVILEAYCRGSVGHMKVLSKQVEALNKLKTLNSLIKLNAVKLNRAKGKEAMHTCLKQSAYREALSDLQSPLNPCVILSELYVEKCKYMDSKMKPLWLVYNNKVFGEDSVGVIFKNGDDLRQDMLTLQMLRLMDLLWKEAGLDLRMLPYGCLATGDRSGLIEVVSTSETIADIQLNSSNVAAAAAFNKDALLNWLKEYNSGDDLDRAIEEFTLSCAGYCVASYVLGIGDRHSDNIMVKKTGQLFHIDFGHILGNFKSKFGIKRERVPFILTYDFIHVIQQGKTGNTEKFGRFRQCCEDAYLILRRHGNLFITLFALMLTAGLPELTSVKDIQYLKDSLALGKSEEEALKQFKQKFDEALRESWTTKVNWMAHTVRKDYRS", "chain of UniProt Q9UEE5 (whole entry, looked up)": "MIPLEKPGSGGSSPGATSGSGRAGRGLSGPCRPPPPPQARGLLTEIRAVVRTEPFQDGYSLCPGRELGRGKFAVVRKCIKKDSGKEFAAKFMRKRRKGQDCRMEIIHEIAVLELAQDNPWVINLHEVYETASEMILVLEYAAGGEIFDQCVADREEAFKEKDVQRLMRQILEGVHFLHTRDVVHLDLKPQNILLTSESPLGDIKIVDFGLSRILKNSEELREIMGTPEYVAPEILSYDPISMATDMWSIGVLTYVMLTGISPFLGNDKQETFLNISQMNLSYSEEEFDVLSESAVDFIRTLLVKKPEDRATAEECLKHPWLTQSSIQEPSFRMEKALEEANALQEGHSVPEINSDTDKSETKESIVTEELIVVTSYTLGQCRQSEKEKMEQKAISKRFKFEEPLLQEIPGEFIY", "chain of UniProt Q02318 (whole entry, looked up)": "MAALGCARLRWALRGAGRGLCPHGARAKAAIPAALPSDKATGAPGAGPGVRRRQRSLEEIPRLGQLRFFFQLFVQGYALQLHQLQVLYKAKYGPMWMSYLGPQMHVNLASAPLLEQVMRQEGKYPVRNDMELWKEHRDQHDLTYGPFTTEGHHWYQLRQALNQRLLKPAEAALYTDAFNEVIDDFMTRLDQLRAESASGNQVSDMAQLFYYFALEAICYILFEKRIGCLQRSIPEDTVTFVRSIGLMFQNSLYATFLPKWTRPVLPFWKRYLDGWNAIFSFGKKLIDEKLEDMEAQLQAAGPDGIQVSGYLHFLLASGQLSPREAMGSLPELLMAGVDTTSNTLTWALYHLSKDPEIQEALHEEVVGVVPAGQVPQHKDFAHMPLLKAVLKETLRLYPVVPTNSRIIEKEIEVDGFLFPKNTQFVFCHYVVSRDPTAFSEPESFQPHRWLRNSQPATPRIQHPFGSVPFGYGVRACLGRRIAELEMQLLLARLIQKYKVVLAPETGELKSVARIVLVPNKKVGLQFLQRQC", "chain of UniProt Q00535 (whole entry, looked up)": "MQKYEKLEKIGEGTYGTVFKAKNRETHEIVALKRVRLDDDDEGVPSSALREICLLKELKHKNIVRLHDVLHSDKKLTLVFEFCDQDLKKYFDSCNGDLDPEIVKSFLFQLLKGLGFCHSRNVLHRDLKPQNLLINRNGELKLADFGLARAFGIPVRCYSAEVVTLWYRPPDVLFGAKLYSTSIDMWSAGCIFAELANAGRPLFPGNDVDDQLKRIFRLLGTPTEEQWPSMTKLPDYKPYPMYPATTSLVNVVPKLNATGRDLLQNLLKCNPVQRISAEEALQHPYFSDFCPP"}
{"SMILES": "CCN(c1cc(-c2ccc(CN3CCOCC3)cc2)cc(C(=O)NCc2c(C)cc(C)[nH]c2=O)c1C)C1CCOCC1", "tested on": "PRMT6 (Homo sapiens, UniProt Q96LA8)", "test": "enzyme activity, inhibitor", "conditions": "1 µM", "quantity": "inhibition", "result": "3 ± 3%"}
{"SMILES": "CC1=CC(=O)N(c2ccccc2)C1=O", "tested on": "12-oxophytodienoate reductase OPR1 (isoform 1)", "test": "ene-reductase biotransformation, substrate", "quantity": "conversion", "result": "99%"}
{"SMILES": "O=C(O)/C(=C/c1c(C(=O)O)[nH]c2cc(Cl)cc(Cl)c12)c1ccccc1", "tested on": "Grin1 (Rattus norvegicus, UniProt P35439)", "test": "binding", "quantity": "Hill coefficient", "result": 0.6}
{"SMILES": "Cc1cn([C@H]2C[C@H](O)[C@@H](CO)O2)c(=O)nc1N", "tested on": "cytidine deaminase (human)", "test": "substrate", "conditions": "concentration not given", "quantity": "Km", "result": "8 µM"}
{"SMILES": "Cc1cc(O)c2c(c1)C(=O)c1cc(O)cc(O)c1C2=O", "tested on": "DRD3 (Homo sapiens, UniProt P35462)", "test": "agonist", "conditions": "50 µM", "quantity": "activation", "result": "75.6 ± 12.9%"}
{"SMILES": "CNC(C)C1CCC(N)C(OC2C(N)CC(N)C(OC3OCC(C)(O)C(NC)C3O)C2O)O1 (stereo not drawn)", "tested on": "Escherichia coli", "system": "clinical isolate RKI-No_602/16", "quantity": "MIC", "result": "≤ 0.5 µg/mL"}
{"SMILES": "CO[C@H]1/C=C/O[C@@]2(C)Oc3c(C)c(O)c4c(O)c(c(/C=N/N5CCN(C)CC5)c(O)c4c3C2=O)NC(=O)/C(C)=C\\C=C\\[C@H](C)[C@H](O)[C@@H](C)[C@@H](O)[C@@H](C)[C@H](OC(C)=O)[C@@H]1C", "tested on": "arylacetamide deacetylase (human)", "test": "substrate", "quantity": "Km", "result": "195 µM"}
{"SMILES": "CNC(=NCCSCc1csc(N=C(N)N)n1)NC#N", "tested on": "HRH2 (Homo sapiens, UniProt P25021)", "conditions": "historical reference value", "quantity": "Hill coefficient", "result": 1.1}
{"SMILES": "CC1(C)S[C@@H]2[C@H](NC(=O)[C@H](N)c3ccccc3)C(=O)N2[C@H]1C(=O)O", "tested on": "Enterobacter cloacae", "system": "clinical isolate RKI 1026/14-1", "quantity": "MIC", "result": "> 16 µg/mL"}
{"SMILES": "Nc1cc(C(F)(F)F)c(-c2nc(N3CCOCC3)nc(N3CCOCC3)n2)cn1", "tested on": "CDK5 (Homo sapiens, UniProt Q00535)", "test": "enzyme activity", "conditions": "10 µM", "how to read": "baseline: untreated", "quantity": "remaining activity", "result": "85%"}
{"SMILES": "C=CC(=O)N1CCC(C(=O)NCC(=O)N2CCN(c3nc(-c4cnc(N)nc4C(F)F)nc(N4CCOCC4)n3)CC2)CC1", "tested on": "PIK3CB (Homo sapiens, UniProt P42338)", "test": "kinase activity", "conditions": "1 µM", "quantity": "remaining activity", "result": "0.05%"}
{"SMILES": "CC/C=C(\\C)C=O", "tested on": "12-oxophytodienoate reductase OPR1 (isoform 1)", "test": "ene-reductase biotransformation, substrate", "quantity": "conversion", "result": "96%"}
{"SMILES": "CC(C)CCC[C@@H](C)[C@H]1CC[C@H]2C3=CC=C4C[C@@H](O)CC[C@@]4(C)[C@@H]3CC[C@]12C", "tested on": "CYP27A1 (Homo sapiens, UniProt Q02318)", "test": "substrate", "system": "phospholipid vesicles", "quantity": "kcat", "result": "1.27 s⁻¹"}
{"SMILES": "Nc1nc(=O)n([C@H]2C[C@H](O)[C@@H](CO)O2)cc1I", "tested on": "cytidine deaminase (human)", "test": "substrate", "conditions": "concentration not given", "quantity": "Km", "result": "10 µM"}
{"SMILES": "O=C(Nc1nc2ccccc2[nH]1)c1ccccc1", "tested on": "matrix metalloproteinase 1", "conditions": "PubChem AID 618", "quantity": "activity", "result": "3.5 µM"}
{"SMILES": "CCCCC/C=C\\C[C@@H](O)/C=C/C=C/C=C\\[C@@H](O)CCCC(=O)O", "tested on": "human CYP4F3A", "test": "metabolism, substrate", "system": "insect cell microsomes", "quantity": "Km", "result": "0.68 µM"}
{"SMILES": "COc1c(N2C[C@@H]3CCCN[C@@H]3C2)c(F)cc2c(=O)c(C(=O)O)cn(C3CC3)c12", "tested on": "UGT1A1 (Homo sapiens, UniProt P22309)", "test": "substrate", "quantity": "Km", "result": "3400 µM"}
{"SMILES": "CCS(=O)(=O)N1CC(CC#N)(n2cc(-c3ncnc4[nH]ccc34)cn2)C1", "tested on": "bovine serum albumin", "conditions": "308 K", "quantity": "binding constant", "result": "2450 M⁻¹"}
{"SMILES": "CC(C)(O/N=C(\\C(=O)N[C@@H]1C(=O)N2C(C(=O)[O-])=C(C[N+]3(CCNC(=O)c4ccc(O)c(O)c4Cl)CCCC3)CS[C@H]12)c1csc(N)n1)C(=O)O", "tested on": "L1", "test": "hydrolysis by enzyme, substrate", "quantity": "Km", "result": "510 µM"}
{"SMILES": "COc1cccc(-c2ccc(NC(=O)C3=C(C(=O)O)CCC3)c(F)c2)c1", "tested on": "Nuclear receptor subfamily 4 group A member 3 (Homo sapiens, UniProt Q92570)", "test": "agonist", "how to read": "baseline: reference modulator", "quantity": "maximal activation", "result": "460%"}
{"SMILES": "CCC(=O)O[C@]1(C(=O)SCF)[C@H](C)C[C@H]2[C@@H]3C[C@H](F)C4=CC(=O)C=C[C@]4(C)[C@@]3(F)[C@@H](O)C[C@@]21C", "tested on": "Nr3c1 (Rattus norvegicus, UniProt P06536)", "system": "rat, spleen", "conditions": "intravenous, 90 nmol/kg, 1.15 (unit not given)", "quantity": "receptor occupancy", "result": "68.7%"}
{"SMILES": "O=[N+]([O-])c1cc(C(F)(F)F)ccc1NCc1ccsc1", "tested on": "Endothelial PAS domain-containing protein 1, PAS-B domain (EPAS1, Homo sapiens, UniProt Q99814)", "test": "isothermal titration calorimetry", "conditions": "concentration not given, <0.1% DMSO", "quantity": "binding enthalpy", "result": "-9.5 kcal/mol"}
{"SMILES": "N=C1NC(=O)C2(CCc3ccccc32)C(=O)N1 (stereo not drawn)", "tested on": "GABA-A receptor alpha-1/beta-3 (GABRA1/GABRB3, Homo sapiens, UniProt P14867+P28472)", "test": "reversal, anesthetic-enhanced desensitization", "conditions": "concentration not given, α1β3 receptor", "how to read": "higher is stronger", "quantity": "inhibition", "result": "75%"}
{"SMILES": "Cc1cc(-c2cc(Cl)ccc2OCCn2c(C)nc3cc(C(F)(F)F)cc(C#N)c3c2=O)c2scc(C(=O)O)c2n1", "tested on": "eIF4E cap-binding site", "test": "fluorescence polarization", "quantity": "activity", "result": "0.085 µM"}
{"SMILES": "Cc1cc(NC(=O)c2cccc(NC(=O)/C=C/CN(C)C)c2)ccc1Nc1nccc(-c2cccnc2)n1", "tested on": "STK17A (Homo sapiens, UniProt Q9UEE5)", "test": "enzyme activity, inhibitor", "conditions": "1 µM", "how to read": "baseline: vehicle", "quantity": "remaining activity", "result": "24%"}
{"SMILES": "N[C@@H](CC(=O)c1ccccc1)C(=O)O", "tested on": "kynureninase (Pseudomonas fluorescens)", "test": "substrate", "quantity": "benzoate formation rate", "result": "~1 s⁻¹"}
{"SMILES": "CC(C)=CCCC(C)=CC=O (mixture of isomers)", "tested on": "12-oxophytodienoate reductase OPR3 (isoform 3)", "test": "ene-reductase biotransformation, substrate", "quantity": "conversion", "result": "90 to 95%"}
{"note": "For quick reference, copied from above:"}
{"SMILES": "Nc1cc(C(F)(F)F)c(-c2nc(N3CCOCC3)nc(N3CCOCC3)n2)cn1", "tested on": "CDK5 (Homo sapiens, UniProt Q00535)", "test": "enzyme activity", "conditions": "10 µM", "how to read": "baseline: untreated", "quantity": "remaining activity", "result": "85%"}
{"SMILES": "C=CC(=O)N1CCC(C(=O)NCC(=O)N2CCN(c3nc(-c4cnc(N)nc4C(F)F)nc(N4CCOCC4)n3)CC2)CC1", "tested on": "PIK3CB (Homo sapiens, UniProt P42338)", "test": "kinase activity", "conditions": "1 µM", "quantity": "remaining activity", "result": "0.05%"}
